Published values gathered from unrelated publications.
Compare with care: the assays were run in different laboratories. ± marks the error that the study gave.
Tumor necrosis factor receptor superfamily member 1A extracellular domain: Tumor necrosis factor receptor superfamily member 1A, extracellular domain (Homo sapiens, UniProt P19438)
Chain of UniProt P19438 (whole entry, looked up): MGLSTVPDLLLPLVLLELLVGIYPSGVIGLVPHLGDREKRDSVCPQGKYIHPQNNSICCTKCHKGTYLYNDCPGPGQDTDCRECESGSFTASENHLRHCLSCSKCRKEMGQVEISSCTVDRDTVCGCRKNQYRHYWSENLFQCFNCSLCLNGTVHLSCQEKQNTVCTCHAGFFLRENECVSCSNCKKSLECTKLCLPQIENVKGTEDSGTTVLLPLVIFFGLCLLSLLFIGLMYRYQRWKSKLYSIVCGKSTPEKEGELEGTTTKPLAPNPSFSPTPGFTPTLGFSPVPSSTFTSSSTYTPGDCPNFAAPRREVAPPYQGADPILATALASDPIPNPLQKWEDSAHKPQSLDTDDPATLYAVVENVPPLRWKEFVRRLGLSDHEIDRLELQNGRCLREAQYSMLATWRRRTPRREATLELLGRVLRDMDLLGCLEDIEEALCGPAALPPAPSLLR
GATD3: Glutamine amidotransferase-like class 1 domain-containing protein 3, mitochondrial (GATD3, Homo sapiens, UniProt P0DPI2)
Chain of UniProt P0DPI2 (whole entry, looked up): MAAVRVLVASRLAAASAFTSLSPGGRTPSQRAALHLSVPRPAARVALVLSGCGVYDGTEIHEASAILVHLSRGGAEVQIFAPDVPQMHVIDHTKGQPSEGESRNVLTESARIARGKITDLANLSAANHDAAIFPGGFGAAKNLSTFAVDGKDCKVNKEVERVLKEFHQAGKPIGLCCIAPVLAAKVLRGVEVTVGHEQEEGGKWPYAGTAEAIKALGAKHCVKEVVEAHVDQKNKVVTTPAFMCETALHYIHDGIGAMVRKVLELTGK
USP5 ZnF-UBD domain: Ubiquitin carboxyl-terminal hydrolase 5, ZnF-UBD domain (USP5, Homo sapiens, UniProt P45974)
Chain of UniProt P45974 (whole entry, looked up): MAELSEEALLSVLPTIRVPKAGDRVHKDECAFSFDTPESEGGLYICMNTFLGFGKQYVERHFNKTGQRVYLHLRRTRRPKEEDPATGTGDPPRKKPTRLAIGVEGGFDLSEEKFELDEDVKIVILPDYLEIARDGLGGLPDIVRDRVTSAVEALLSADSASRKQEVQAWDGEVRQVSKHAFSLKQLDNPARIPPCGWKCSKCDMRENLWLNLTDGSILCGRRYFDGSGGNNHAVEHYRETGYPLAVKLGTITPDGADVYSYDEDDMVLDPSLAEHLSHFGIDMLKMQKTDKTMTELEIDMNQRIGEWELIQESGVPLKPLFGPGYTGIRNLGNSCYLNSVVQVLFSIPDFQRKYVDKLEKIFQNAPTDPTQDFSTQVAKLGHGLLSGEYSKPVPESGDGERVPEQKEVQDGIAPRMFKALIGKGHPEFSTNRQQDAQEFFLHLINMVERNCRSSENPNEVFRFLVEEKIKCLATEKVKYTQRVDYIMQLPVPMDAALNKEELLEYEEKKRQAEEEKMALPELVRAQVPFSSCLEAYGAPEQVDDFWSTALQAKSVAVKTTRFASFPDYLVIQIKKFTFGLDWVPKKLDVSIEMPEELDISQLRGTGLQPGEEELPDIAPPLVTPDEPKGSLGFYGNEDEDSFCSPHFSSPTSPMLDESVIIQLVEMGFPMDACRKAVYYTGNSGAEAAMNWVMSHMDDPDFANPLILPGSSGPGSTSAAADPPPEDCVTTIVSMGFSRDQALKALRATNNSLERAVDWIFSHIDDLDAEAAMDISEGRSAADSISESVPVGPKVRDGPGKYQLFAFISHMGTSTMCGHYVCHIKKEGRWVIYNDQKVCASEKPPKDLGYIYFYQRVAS
Chain of UniProt Q9UQL6 (whole entry, looked up): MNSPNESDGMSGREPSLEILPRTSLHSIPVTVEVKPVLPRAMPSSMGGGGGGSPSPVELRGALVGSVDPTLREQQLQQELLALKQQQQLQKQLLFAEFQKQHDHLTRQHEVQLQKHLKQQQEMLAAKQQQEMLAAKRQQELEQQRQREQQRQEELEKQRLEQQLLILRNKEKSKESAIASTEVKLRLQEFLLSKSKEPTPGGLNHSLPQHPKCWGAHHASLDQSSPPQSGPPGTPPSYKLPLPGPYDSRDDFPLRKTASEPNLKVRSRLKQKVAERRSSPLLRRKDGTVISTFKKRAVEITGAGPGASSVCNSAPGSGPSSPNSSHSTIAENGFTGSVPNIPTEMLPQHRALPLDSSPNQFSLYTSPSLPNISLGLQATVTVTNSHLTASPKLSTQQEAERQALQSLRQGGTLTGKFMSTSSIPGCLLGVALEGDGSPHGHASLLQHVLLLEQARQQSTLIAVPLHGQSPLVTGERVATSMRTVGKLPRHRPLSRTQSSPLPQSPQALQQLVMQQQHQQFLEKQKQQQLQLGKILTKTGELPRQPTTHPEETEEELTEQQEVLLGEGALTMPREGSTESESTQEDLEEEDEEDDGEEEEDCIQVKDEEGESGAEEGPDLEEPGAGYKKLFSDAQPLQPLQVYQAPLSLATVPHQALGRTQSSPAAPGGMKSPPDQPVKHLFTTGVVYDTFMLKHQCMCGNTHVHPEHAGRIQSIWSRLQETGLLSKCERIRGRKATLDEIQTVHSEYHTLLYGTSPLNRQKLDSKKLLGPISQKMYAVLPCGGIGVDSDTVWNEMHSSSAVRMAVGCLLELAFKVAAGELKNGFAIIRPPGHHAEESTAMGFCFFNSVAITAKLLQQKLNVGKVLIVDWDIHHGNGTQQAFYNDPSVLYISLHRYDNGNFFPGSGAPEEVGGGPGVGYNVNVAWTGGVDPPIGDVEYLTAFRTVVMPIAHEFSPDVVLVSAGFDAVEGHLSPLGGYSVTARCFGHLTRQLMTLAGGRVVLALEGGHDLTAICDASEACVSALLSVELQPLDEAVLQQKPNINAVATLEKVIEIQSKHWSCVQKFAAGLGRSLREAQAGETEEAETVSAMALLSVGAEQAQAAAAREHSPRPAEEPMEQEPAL

Structure (SMILES) = CS(=O)(=O)NC(=O)c1cc(-c2ccc(F)cc2)ccn1; target = Tumor necrosis factor receptor superfamily member 1A extracellular domain; assay = binding, SPR OneStep; Kd = 1200 ± 50 µM
Structure (SMILES) = CN(C)Cc1c(C(=O)NCCOc2ccc(C(=O)NO)cc2)oc2ccccc12; target = GATD3; assay = inhibitor, competition pulldown; system = SW620 and MV4-11 lysate; setting = 1 h; Kd = > 30.2 µM
Structure (SMILES) = Nc1nc(CC(=O)O)cs1; target = USP5 ZnF-UBD domain; Kd = > 1000 µM
Structure (SMILES) = O=C(O)c1cc(-c2ccc3[nH]ccc3c2)cc(CO)n1; target = Tumor necrosis factor receptor superfamily member 1A extracellular domain; assay = binding, SPR OneStep; Kd = 445 ± 29 µM
Structure (SMILES) = O=C(O)CCn1cccn1; target = USP5 ZnF-UBD domain; Kd = > 1000 µM
Structure (SMILES) = Cn1cc(CNCC2CCN(c3ncc(C(=O)NO)cn3)CC2)c2ccccc21; target = Histone deacetylase 5 (HDAC5, Homo sapiens, UniProt Q9UQL6); assay = inhibitor, competition pulldown; system = SW620 and MV4-11 lysate; setting = 1 h; Kd = 0.295 µM
Structure (SMILES) = Nc1ccc(-c2ccnc(C(=O)O)c2)cc1; target = Tumor necrosis factor receptor superfamily member 1A extracellular domain; assay = binding, SPR OneStep; Kd = 969 ± 39 µM
Structure (SMILES) = C=CC(=O)N1CCN(c2nc(OC[C@@H]3CCCN3C)nc3c(F)c(-c4nc(N)cc(C)c4C(F)(F)F)c(Cl)cc23)[C@@H](C)C1; target = GTPase KRas, GDP-bound (KRAS, Homo sapiens, UniProt P01116, G12D); assay = SPR; Kd = 10.5 ± 1.8 µM
Structure (SMILES) = CCCCc1nc2cc(/C=C/C(=O)NO)ccc2n1CCN(CC)CC; target = GATD3; assay = inhibitor, competition pulldown; system = SW620 and MV4-11 lysate; setting = 1 h; Kd = > 30.2 µM
Structure (SMILES) = O=C(O)CNc1ccc2nncn2n1; target = USP5 ZnF-UBD domain; Kd = > 1000 µM

A few entries again:
Structure (SMILES) = Cn1cc(CNCC2CCN(c3ncc(C(=O)NO)cn3)CC2)c2ccccc21; target = Histone deacetylase 5 (HDAC5, Homo sapiens, UniProt Q9UQL6); assay = inhibitor, competition pulldown; system = SW620 and MV4-11 lysate; setting = 1 h; Kd = 0.295 µM
